Measured values from different studies.
Lines come from different studies, so protocols differ. “And” joins repeats or separate records; there may be more than shown. ± gives the spread as reported. Values after ≈ are worked out from the molar mass of the structure shown.

SMILES | organism | assay | system | setting | scale | quantity | result
CNCc1ccc2c(c1)C[C@H](CNC(=N)N)[C@H]2NC(=O)C(=O)Nc1ccc(Cl)c(F)c1 | HIV-1 | viral infection | TZM-bl, CRF02_AG 235-47 Env pseudovirus | – | – | IC50 | 6640 nM
CCN(CC)CC#CCNc1ccnc2cc(Cl)ccc12 | Plasmodium falciparum | parasite growth, SYBR Green I | 3D7 | mean of experiments | – | IC50 | 42.7 nM
C[C@@H]1C(=O)O[C@@H](C)/C=C/C=C\[C@@H](C)[C@@H]2C=C[C@@H]3C[C@@]4(C)O[C@H]4[C@@H](C)[C@H]3[C@@H]2C(=O)C(Cl)(Cl)C1=O | Staphylococcus aureus | – | MRSA clinical isolate | resistant: OXA,CLI,ERY,GEN,TET | – | MIC | 0.025 µg/mL (≈ 0.0505 µM)
O=C1C(=O)c2[nH]cc3c2C(=C1I)NCC3 | Babesia divergens | parasite growth, SYBR Green | – | 60 h, blood stage | – | IC50 | 10000 nM
CCCCCCCCCC(=O)N[C@@H](Cc1c[nH]c2ccccc12)C(=O)N[C@H](CC(N)=O)C(=O)N[C@@H](CC(=O)O)C(=O)N[C@@H]1C(=O)NCC(=O)N[C@@H](CCCNC(=O)OC2/C=C/CCCCC2)C(=O)N[C@@H](CC(=O)O)C(=O)N[C@H](C)C(=O)N[C@@H](CC(=O)O)C(=O)NCC(=O)N[C@H](CO)C(=O)N[C@@H]([C@H](C)CC(=O)O)C(=O)N[C@@H](CC(=O)c2ccccc2N)C(=O)O[C@@H]1C (some centres unmarked) | Staphylococcus aureus | planktonic bacterial growth, isothermal microcalorimetry | MSSA | 1.0 µg/mL, 24 h, 37 °C, added: TAG hydrogel | – | peak heat flow time | 0 h
CNCc1ccc2c(c1)N(C(=O)OCc1c(F)c(F)c(F)c(F)c1F)[C@H](CNC(=N)N)[C@H]2NC(=O)C(=O)Nc1ccc(Cl)c(F)c1 | HIV-1 | pseudovirus infection, Env pseudovirus neutralisation | TZM-bl, clade B | – | – | IC80 | 112 nM
C=C(NC(=O)c1csc(-c2nc3c(cc2O)-c2nc(cs2)C(=O)NC(C(C)O)C(=O)NC(=C(C)OC)c2nc(cs2)C(=O)NC2c4nc(cs4)C(=O)NC(COC(=O)c4c5c6c(cccc6n4O)COC(=O)C(OC4CC(C)(O)C(N(C)C)C(C)O4)C2OC5)c2nc-3cs2)n1)C(N)=O (centres unmarked) | Streptococcus pneumoniae | – | -25, immunocompromised mice, lung | 2 mg/kg/day once daily, 24 h post-dose | – | lung bacterial load | 6.49 log10 CFU/lung
Cc1c(CN(C)C(=O)/C=C/c2cnc3c(c2)CC(N)C(=O)N3)oc2ccccc12 (centres unmarked) | Escherichia coli | broth microdilution | AR-0346 | – | – | MIC | 8 µg/mL (≈ 20.5 µM)
O=C(Nc1ccc([N+](=O)[O-])cc1Cl)c1cc(Cl)ccc1O | human adenovirus C5 | progeny virus production | A549 | 72 h | – | EC50 | 1000 nM
C[N+]1=C2C=C(NCCc3c[nH]c4ccccc34)C(=O)c3[nH]cc(c32)CC1 | Babesia divergens | parasite growth, SYBR Green | – | 60 h, blood stage | – | IC50 | 1.6 nM
Cc1cccc2c1N(C(=O)n1ccnn1)CC2 | Arabidopsis thaliana | – | kai2-2 mutant, seedlings | 5 µM, added: (±)-GR24 1 µM | – | hypocotyl length | 2.84 mm
C[N+](C)(C)CCO.O=C([O-])C(Cl)Cl | Eleusine indica | – | – | 15 mg/mL, 21 days, pre-emergence, greenhouse | – | herbicidal inhibition | 0%
CC(C)(C)NCC(SS(=O)(=O)O)c1ccccc1 (centres unmarked) | Schistosoma mansoni | perfusion day 44 | infected Swiss Webster mice | 600 mg/kg single dose, 1056 h, dosed day 1 post-infection | reference: vehicle control | liver weight decrease | 17%
NCCOCCO.O=C(O)C(Cl)Cl | Eleusine indica | – | – | 15 mg/mL, 21 days, pre-emergence, greenhouse | – | herbicidal inhibition | 0%
COC1C=COC2(C)Oc3c(C)c(O)c4c(c3C2=O)C2=NC3(CCN(CC(C)C)CC3)NC2=C(NC(=O)C(C)=CC=CC(C)C(O)C(C)C(O)C(C)C(OC(=O)Nc2cnccn2)C1C)C4=O (centres unmarked) | Mycobacteroides abscessus | bacterial growth | subsp. abscessus M9 clinical isolate | – | – | IC90 | 79 nM
CC(O)CNCC(C)O.O=C(O)C(Cl)Cl (centres unmarked) | Amaranthus retroflexus | herbicidal activity | – | 15 mg/mL, 21 days, pre-emergence greenhouse | – | inhibition | 0%
COc1c(Br)cc(CCNC2=CC3=NCCc4c[nH]c(c43)C2=O)cc1Br | Babesia divergens | parasite growth, SYBR Green | – | 60 h, blood stage | – | IC50 | 572 nM
CCOC(=O)/C=C/[C@H](C[C@@H]1CCNC1=O)NC(=O)[C@@H](CC(=O)[C@@H](NC(=O)c1cc(C)on1)C(C)C)Cc1ccc(F)cc1 | Rhinovirus C | viral replication, high-content imaging | RV-C15a-mGL | – | – | IC50 | 18 ± 8 nM
FC(F)(F)c1cccc(CNc2nc(NC3CCN(Cc4ccccc4)CC3)c3nc[nH]c3n2)c1 | Cryptococcus neoformans | RNA-seq, refers to: MIOX (CNAG_06623) | wild type | 48 µg/mL, 3 h | reference: untreated wild type | log2 fold change | 2.15
COC1C=COC2(C)Oc3c(C)c(O)c4c(c3C2=O)C2=NC3(CCN(CC(C)C)CC3)NC2=C(NC(=O)C(C)=CC=CC(C)C(O)C(C)C(O)C(C)C(OC(=O)Nc2cccnn2)C1C)C4=O (centres unmarked) | Mycobacteroides abscessus | bacterial growth | subsp. massiliense clinical isolate | slow grower | – | IC90 | 14 nM
O=C(Oc1cc(OC(=O)c2cc(O)c(O)c(O)c2)c2ccccc2c1)c1cc(O)c(O)c(O)c1 | herpes simplex virus 2 | plaque | 333, BALB/c mice, genital herpes model, vaginal lavage | 15 and 30 mg/kg/day, 4 days post infection | – | viral load | decreased
CN(Cc1ccc(C2(C(F)(F)F)CCC2)cc1)Cc1cccc2ccccc12 | Trichophyton mentagrophytes | microbial growth, disc diffusion | ATCC18748 | 0.128 µg/mL, 72 h | – | inhibition zone | 34.5 mm
C=C[C@]1(C)C[C@@H](OC(=O)CSc2ccc(NC(=O)c3ccco3)cc2)[C@]2(C)[C@H](C)CC[C@]3(CCC(=O)[C@H]32)[C@@H](C)[C@@H]1O | Mycoplasma gallisepticum | – | infected chickens, lung | intramuscular, 10 mg/kg daily x3, 72 h | reference: 0 h | lung mycoplasma load reduction | 0.687 log10 CFU/mL and 1.78 log10 CFU/mL and 1.15 log10 CFU/mL and 1.65 log10 CFU/mL and 1.16 log10 CFU/mL and 1.17 log10 CFU/mL and 1.56 log10 CFU/mL and 1.06 log10 CFU/mL

For quick reference, copied from above:
SMILES | organism | assay | system | setting | scale | quantity | result
C[C@@H]1C(=O)O[C@@H](C)/C=C/C=C\[C@@H](C)[C@@H]2C=C[C@@H]3C[C@@]4(C)O[C@H]4[C@@H](C)[C@H]3[C@@H]2C(=O)C(Cl)(Cl)C1=O | Staphylococcus aureus | – | MRSA clinical isolate | resistant: OXA,CLI,ERY,GEN,TET | – | MIC | 0.025 µg/mL (≈ 0.0505 µM)
O=C1C(=O)c2[nH]cc3c2C(=C1I)NCC3 | Babesia divergens | parasite growth, SYBR Green | – | 60 h, blood stage | – | IC50 | 10000 nM
CCCCCCCCCC(=O)N[C@@H](Cc1c[nH]c2ccccc12)C(=O)N[C@H](CC(N)=O)C(=O)N[C@@H](CC(=O)O)C(=O)N[C@@H]1C(=O)NCC(=O)N[C@@H](CCCNC(=O)OC2/C=C/CCCCC2)C(=O)N[C@@H](CC(=O)O)C(=O)N[C@H](C)C(=O)N[C@@H](CC(=O)O)C(=O)NCC(=O)N[C@H](CO)C(=O)N[C@@H]([C@H](C)CC(=O)O)C(=O)N[C@@H](CC(=O)c2ccccc2N)C(=O)O[C@@H]1C (some centres unmarked) | Staphylococcus aureus | planktonic bacterial growth, isothermal microcalorimetry | MSSA | 1.0 µg/mL, 24 h, 37 °C, added: TAG hydrogel | – | peak heat flow time | 0 h
